Experimental data from different studies.
Compare with care: the assays were run in different laboratories. Numbers after ± are the reported error.

C[C@@H](O)[C@@H]1NC(=O)[C@@H]2CCCN2C(=O)[C@H](CC(N)=O)NC(=O)[C@@H](NC(=O)[C@H](Cc2ccc(O)cc2)NC(=O)CNC(=O)[C@@H](N)CC(N)=O)CCC(=O)NCCCC[C@@H](C(=O)N[C@@H](Cc2ccccc2)C(=O)N[C@@H](Cc2ccccc2)C(=O)N[C@@H](CCC(=O)O)C(=O)O)NC(=O)[C@H](Cc2ccc(O)cc2)NC1=O
plasma half-life (human plasma; 37 °C; relative to: APP wild-type peptide): 4 fold

OB1c2sccc2C=NN1Cc1ccccc1
plasma stability (HPLC; human plasma; 400 µM, 10 h, 37 °C): stable

CN1C(=CC2=C(O)C(=CC3=[N+](CCC[N+](C)(C)C)c4ccccc4C3(C)C)C2=O)C(C)(C)c2ccccc21
plasma protein binding (rapid equilibrium dialysis; plasma): 2.8%

CCOc1ccc2cc(-c3nn(CC4CCN(C)CC4)c4ncnc(N)c34)ccc2n1
plasma concentration (LC-MS/MS; crossbred piglets (Landrace x Large White); oral, 10 mg/kg twice daily, 2 h before dose 9, day 7 post-infection): 11.7 µM

O=C(CCC(C(=O)[O-])N1CCN(C(CCC(=O)NCC(O)CO)C(=O)[O-])Cc2cccc(n2)CN(C(CCC(=O)NCC(O)CO)C(=O)[O-])CC1)NCC(O)CO.[153Gd+3] (stereo not shown)
plasma protein binding (equilibrium dialysis; dog plasma; 0.01-5 µmol/mL, 2 h, 37 °C): 1.4%

CN1CCC(Cn2nc(-c3ccc4nc(O)ccc4c3)c3c(N)ncnc32)CC1
plasma concentration (piglets, crossbred; oral, 10 mg/kg twice daily, 2 h after dose 9, 7 days post infection): 0.02 ± 0.01 µM

CN1C(=CC2=C([O-])C(=CC3=[N+](CCC[N+](C)(C)C)c4ccc(S(=O)(=O)[O-])cc4C3(C)C)C2=O)C(C)(C)c2ccccc21
plasma protein binding (rapid equilibrium dialysis; plasma): 4.4%

CONC(=O)[C@H]1[C@@H](O)[C@@]2(O)c3c(cc(OC)nc3OC)O[C@@]2(c2ccc(C#N)cc2)[C@@H]1c1ccccc1
plasma half-life (plasma; oral, 5 mg/kg): 598 ± 120 min

CCOc1ccc2cc(-c3nn(CC4CCNCC4)c4ncnc(N)c34)ccc2n1
plasma concentration (piglets, crossbred; oral, 10 mg/kg, 2 h after dose 1, 3 days post infection): 0.01 ± 0.01 µM

CN1C(=CC2=C(O)C(=CC3=[N+](CCC[N+](C)(C)C)c4ccc(Cl)cc4C3(C)C)C2=O)C(C)(C)c2ccccc21
plasma protein binding (rapid equilibrium dialysis; plasma): 47.9%

For quick reference, copied from above:
OB1c2sccc2C=NN1Cc1ccccc1
plasma stability (HPLC; human plasma; 400 µM, 10 h, 37 °C): stable
